Results gathered from unrelated publications.
Each numbered part is a random draw from the data of one study; scales do not carry over between parts. Positions count from the first letter of the parent shown.

Block 1
Target: CCNB3, cyclin fold, Cln2 fusion (human)
Technique: yeast growth competition, sequencing
Medium: yeast
Notes: weak parent motif
Reference: not given
Reading: higher = stronger binding
Parent: E2F1 docking peptide (human); PPVKRRLDLETDH; partner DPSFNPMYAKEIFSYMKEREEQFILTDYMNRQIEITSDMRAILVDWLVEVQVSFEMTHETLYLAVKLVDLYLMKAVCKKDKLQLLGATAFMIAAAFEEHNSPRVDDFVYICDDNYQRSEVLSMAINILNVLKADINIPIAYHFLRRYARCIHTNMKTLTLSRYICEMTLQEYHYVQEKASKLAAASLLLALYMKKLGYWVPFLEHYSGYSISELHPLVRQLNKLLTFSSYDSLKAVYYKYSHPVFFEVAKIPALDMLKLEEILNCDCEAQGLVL
`E10Y`: “normalised enrichment score” 0.219.
`R5A L7A`: “normalised enrichment score” -0.339.
`K4M`: “normalised enrichment score” 0.673.
Under “normalised enrichment score”, `E10N` is recorded as 0.607.
`T11V`: “normalised enrichment score” 0.445.
For `E10G`, “normalised enrichment score” read 0.563.
`H13F` — result for “normalised enrichment score”: 0.313.
For `D8T`, “normalised enrichment score” read 0.953.
For `P1R`, “normalised enrichment score” read 0.22.
`R5K`: “normalised enrichment score” -0.152.
For `D8F`, “normalised enrichment score” read 1.49.
`L7I` — result for “normalised enrichment score”: 0.246.
Under “normalised enrichment score”, `K4H` is recorded as 0.715.
`K4P`: “normalised enrichment score” 0.14.
`K4L`: “normalised enrichment score” 0.504.
Under “normalised enrichment score”, `L7F` is recorded as -0.0776.

Block 2
Target: Interferon regulatory factor 3, full length, phosphomimetic (IRF3, Homo sapiens, UniProt Q14653, residues 1-427, S386D/S396D/S398D/S402D/T404D/S405D)
Chain of UniProt Q14653 (whole entry, unmodified, looked up): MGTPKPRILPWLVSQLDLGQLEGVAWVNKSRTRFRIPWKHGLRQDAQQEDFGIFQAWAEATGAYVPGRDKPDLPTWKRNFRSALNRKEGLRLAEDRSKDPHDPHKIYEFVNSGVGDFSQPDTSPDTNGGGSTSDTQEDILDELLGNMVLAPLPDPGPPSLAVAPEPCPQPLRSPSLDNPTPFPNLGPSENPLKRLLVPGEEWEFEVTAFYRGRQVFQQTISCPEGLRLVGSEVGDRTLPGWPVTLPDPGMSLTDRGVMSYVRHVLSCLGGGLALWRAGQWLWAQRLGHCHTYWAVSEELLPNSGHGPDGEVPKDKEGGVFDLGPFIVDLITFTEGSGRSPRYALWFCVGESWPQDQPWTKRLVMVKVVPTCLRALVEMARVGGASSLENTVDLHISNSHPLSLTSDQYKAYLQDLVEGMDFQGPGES
Technique: protein-binding microarray
Molecule type: double-stranded DNA, one strand shown
Medium: in vitro
Concentration: 2540 nM top
Notes: 60-bp whole probe
With: salmon DNA 0.4 mg/ml
Reference: random background probes
Reading: higher = stronger binding
Constant ends, left off below: GCCTAGCAC … GTCTTGATTCGCTTGACGCTGCTG
Under “fitted relative affinity”, `TTAGATATCGGGACTAGATTAGTGCTA` is recorded as 0.0811 z-score.
`GACGGACTGCTTATCCTGATGTGCTAG` — result for “fitted relative affinity”: -0.302 z-score.
`GACGGTTCTGGTTTCGGGACGTGCTAG`: “fitted relative affinity” 3.82 z-score.
`TTAGGTTTCGGGTATCAGTTAGTGCTA`: “fitted relative affinity” 4.54 z-score.
`TCATATATATATTGTTAGACTGTGCTA` — result for “fitted relative affinity”: 0.419 z-score.
For `ACTTGTATTTGTCCCTATTTGTGCTAG`, “fitted relative affinity” read 0.933 z-score.
`TCACCTCTCCTCTCAGGAACTGTGCTA`: “fitted relative affinity” 0.607 z-score.
`TTAGAACTGAGGTATCGATTAGTGCTA` — result for “fitted relative affinity”: 0.0232 z-score.
For `TTAGATATCGGGTATCGAATAGTGCTA`, “fitted relative affinity” read 0.348 z-score.
`TCATCTGTCATTTTCTCACTGTGCTAG`: “fitted relative affinity” 1.18 z-score.
For `GACCGTATCGGGTATCGGGACGTGCTA`, “fitted relative affinity” read 2.42 z-score.
Under “fitted relative affinity”, `TGTCTTCCCCATCTTGTTCCGTGCTAG` is recorded as 1.55 z-score.
For `AGTGGTATAGCACTAAGGGAGTGCTAG`, “fitted relative affinity” read -0.559 z-score.
`ATTTAGTATTACCTATTTCTGTGCTAG`: “fitted relative affinity” 1.49 z-score.
Under “fitted relative affinity”, `TTAGGTATCGGTATCGGTGAGTGCTAG` is recorded as 4.54 z-score.
`GACGGTTTCGGTTCCGGGATGTGCTAG`: “fitted relative affinity” 10.8 z-score.
Under “fitted relative affinity”, `TTAGGTTTCGGTGCCGGTTAGTGCTAG` is recorded as 4.89 z-score.
For `GACGGTTTCGGTTCTGGGACGTGCTAG`, “fitted relative affinity” read 11.2 z-score.
`GACGGTATCAGTCTCGGGACGTGCTAG`: “fitted relative affinity” 3.8 z-score.
`GGCGAACTGGGGTTTCGAGACGTGCTA`: “fitted relative affinity” 0.0138 z-score.

Block 3
Target: ABI1, truncated, D143A, DHFR fusion (Arabidopsis thaliana)
Technique: DHFR PCA, deep sequencing
Medium: yeast
Notes: methotrexate growth selection, single substitutions
With: (+)-ABA 1.4 µM
Reference: wild-type fitted maximum
Reading: higher = stronger binding
Parent: PYL1, truncated, DHFR fusion (Arabidopsis thaliana); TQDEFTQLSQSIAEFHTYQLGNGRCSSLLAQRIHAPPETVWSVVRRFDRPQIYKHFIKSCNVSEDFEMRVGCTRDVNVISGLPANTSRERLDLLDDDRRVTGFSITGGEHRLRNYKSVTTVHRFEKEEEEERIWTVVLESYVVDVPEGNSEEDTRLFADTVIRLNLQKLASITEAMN; partner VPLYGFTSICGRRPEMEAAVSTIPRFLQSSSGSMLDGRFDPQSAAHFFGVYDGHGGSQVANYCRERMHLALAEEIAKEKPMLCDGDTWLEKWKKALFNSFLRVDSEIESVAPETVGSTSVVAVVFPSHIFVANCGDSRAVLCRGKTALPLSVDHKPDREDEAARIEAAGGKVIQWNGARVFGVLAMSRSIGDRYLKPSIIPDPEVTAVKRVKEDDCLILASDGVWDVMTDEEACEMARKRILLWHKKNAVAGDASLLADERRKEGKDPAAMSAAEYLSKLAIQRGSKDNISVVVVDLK
`A175F` — result for “relative binding score”: 6.23%.
`T73I`: “relative binding score” 67.8%.
`K116I` — result for “relative binding score”: -8.3%.
For `T17P`, “relative binding score” read -24.5%.
`I52F`: “relative binding score” 27%.
`E174L`: “relative binding score” -5.96%.
`S9R`: “relative binding score” 75.5%.
Under “relative binding score”, `V136G` is recorded as -0.404%.
`E127N` — result for “relative binding score”: 63.9%.
`V70S`: “relative binding score” 1.47%.
Under “relative binding score”, `L28Q` is recorded as 23.2%.
For `E128Y`, “relative binding score” read 45.2%.
`V40I` — result for “relative binding score”: -19.5%.
`Y115V`: “relative binding score” -4.39%.
`Q10S`: “relative binding score” 80.8%.
`V142F` — result for “relative binding score”: -7.15%.
For `V76Y`, “relative binding score” read 6.35%.
`G148F` — result for “relative binding score”: -37.7%.
For `V43W`, “relative binding score” read -3.07%.
`D159F`: “relative binding score” -30.6%.
`R113P` — result for “relative binding score”: 44%.
`P50S` — result for “relative binding score”: -0.97%.
Under “relative binding score”, `T106G` is recorded as -3.53%.
For `Q2Y`, “relative binding score” read 64%.

Block 4
Target: DBP, bZIP domain (human)
Technique: DHFR protein complementation
Medium: yeast
Notes: single substitutions, most at no-binding floor
Reference: wild-type JUN-FOS pair
Reading: higher = stronger binding
Parent: JUN, bZIP domain (human); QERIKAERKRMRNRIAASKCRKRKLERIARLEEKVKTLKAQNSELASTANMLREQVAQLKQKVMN; partner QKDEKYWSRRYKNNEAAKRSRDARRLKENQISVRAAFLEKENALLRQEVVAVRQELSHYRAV
For `M51E`, the binding fitness was -1.39 natural log.
`R30G` gave a binding fitness of -1.45 natural log.
`V56L` has a binding fitness of -1.51 natural log.
`S43C` gave a binding fitness of -1.43 natural log.
`V35C` has a binding fitness of -1.54 natural log.
`N42Q` has a binding fitness of -1.49 natural log.
With `S47D` the binding fitness was -1.36 natural log.
For `Q55Y`, the binding fitness was -1.57 natural log.
For `A49W`, the binding fitness was -1.51 natural log.
For `S43I`, the binding fitness was -1.5 natural log.
`R30E` gave a binding fitness of -1.27 natural log.
`A29R` has a binding fitness of -1.47 natural log.
`E44R` has a binding fitness of -1.27 natural log.
`L31D` gave a binding fitness of -1.54 natural log.

Block 5
Target: Centromere-binding protein 1, full length, N-terminal tag (CBF1, Saccharomyces cerevisiae, UniProt P17106, residues 1-351)
Chain of UniProt P17106 (whole entry, looked up): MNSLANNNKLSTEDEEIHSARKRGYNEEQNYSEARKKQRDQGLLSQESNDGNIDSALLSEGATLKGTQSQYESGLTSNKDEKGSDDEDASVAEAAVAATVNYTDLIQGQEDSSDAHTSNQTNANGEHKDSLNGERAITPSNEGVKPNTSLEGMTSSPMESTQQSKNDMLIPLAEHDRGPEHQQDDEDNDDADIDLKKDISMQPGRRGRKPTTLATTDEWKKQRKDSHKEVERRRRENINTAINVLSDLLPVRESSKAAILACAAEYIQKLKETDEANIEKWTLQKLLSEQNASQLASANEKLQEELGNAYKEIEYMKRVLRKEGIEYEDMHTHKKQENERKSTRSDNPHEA
Technique: protein-binding microarray
Molecule type: double-stranded DNA, one strand shown
Medium: in vitro
Concentration: 0.8 µM
Notes: whole 60-bp probe, no competitor
Reading: higher = stronger binding
`GAAACCCTAGATCACCTCATGATATCCTTTTGATAGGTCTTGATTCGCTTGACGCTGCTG` has a fluorescence intensity of 544 a.u.
With `GAAACCAGTGGCACACACGTGAACTACATCACTTAGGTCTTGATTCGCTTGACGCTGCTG` the fluorescence intensity was 1830 a.u.
With `CTATGTGTCATTTTGCACGTTACATCGGTTTGCTTCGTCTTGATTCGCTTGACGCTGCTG` the fluorescence intensity was 708 a.u.
`GAATTTTTCAACAGTCACGTGCGCATCTCCCTTTAGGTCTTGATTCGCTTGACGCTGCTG` has a fluorescence intensity of 16700 a.u.
With `CTAGCTAATGAGAAAAACACGGGTATACCGTCATTCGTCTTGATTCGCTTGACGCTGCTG` the fluorescence intensity was 527 a.u.
`CTATATGTTAACGATAACGTGTTGGACTCATCGTTCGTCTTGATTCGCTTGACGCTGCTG` has a fluorescence intensity of 640 a.u.
With `CCTAACTACTATAGTATCATGACATAGCTTCGTACAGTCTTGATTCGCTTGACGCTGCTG` the fluorescence intensity was 560 a.u.
`GAATGCACACTGTATGTGATGACGGCTATCATTTAGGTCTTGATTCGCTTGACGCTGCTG` has a fluorescence intensity of 520 a.u.
For `CTAGTATTGATCAATTACGTGAGTCAGCTTTTTTTCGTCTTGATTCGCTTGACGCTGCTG`, the fluorescence intensity was 535 a.u.
With `GAATATTGAAACCAAAACGTGCTATTTACTGTGTAGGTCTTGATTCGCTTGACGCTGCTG` the fluorescence intensity was 626 a.u.
`CTAAGTATACTATCACATGTGGTGTAAAAAGATTTCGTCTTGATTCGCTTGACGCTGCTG` gave a fluorescence intensity of 2090 a.u.
With `GAACTACCCTGACGTCATCAGCGAAATTCGTTGTAGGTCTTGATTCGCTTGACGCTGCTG` the fluorescence intensity was 492 a.u.
The fluorescence intensity of `CTATTTTCTTGAGTGTGCGTGATGTTGTGTGTGTTCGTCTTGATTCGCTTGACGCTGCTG` is reported as 708 a.u.
With `GAAGTGTACCCCCCTCAACTGATCAACTGGTCATAGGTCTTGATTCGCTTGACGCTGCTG` the fluorescence intensity was 484 a.u.
The fluorescence intensity of `CTAAAACAAAGGCTGCATGCGATAATACACCCTTTCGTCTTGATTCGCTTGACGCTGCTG` is reported as 503 a.u.
The fluorescence intensity of `CTATTGCAAGAATTACTCGTGAGTAAGGAAAGATTCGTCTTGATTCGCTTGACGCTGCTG` is reported as 543 a.u.
The fluorescence intensity of `CTAACTAAATACATGCAGGTGACTGATAGAAAATTCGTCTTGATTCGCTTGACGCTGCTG` is reported as 1500 a.u.
The fluorescence intensity of `CTACGTATATATAGCCACGTAAACCTCACACTATTCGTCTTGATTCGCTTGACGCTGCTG` is reported as 533 a.u.
The fluorescence intensity of `GAAAACGTTAACACACATGTGCTTCTTTATTGTTAGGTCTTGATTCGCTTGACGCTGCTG` is reported as 1020 a.u.
The fluorescence intensity of `CCTAACTACTATAAACACGGGTAATAGCTTCGTACAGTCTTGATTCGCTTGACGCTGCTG` is reported as 533 a.u.

Block 6
Target: Histone acetyltransferase KAT6A, winged helix 1, GST fusion (KAT6A, Homo sapiens, UniProt Q92794, residues 1-85)
Technique: protein binding microarray
Molecule type: double-stranded DNA, one strand shown
Medium: in vitro
Concentration: not given
Notes: 8-mer, flanks averaged, mean of 2 arrays, mostly near background
Reference: not given
Reading: higher = stronger binding
Residues (chain): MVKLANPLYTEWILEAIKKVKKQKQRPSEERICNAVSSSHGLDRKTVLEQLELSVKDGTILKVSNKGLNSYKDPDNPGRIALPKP
For `ACTGGCTG`, the E-score was 0.0378.
The E-score of `CGCATTGC` is reported as 0.132.
The E-score of `GGCTGTGA` is reported as -0.0131.
`ATGCTCAG` has an E-score of -0.217.
With `CAAGTCAC` the E-score was -0.0264.
With `GACTGAAC` the E-score was -0.0284.
With `CCATGAAA` the E-score was -0.192.
`TAAGGTGA` gave an E-score of -0.0526.
For `CCATGGAC`, the E-score was -0.0661.
The E-score of `ACAATAAT` is reported as -0.0535.
With `CAAGTCGG` the E-score was 0.0256.
The E-score of `TAACTCTA` is reported as -0.153.
For `TAGGCACA`, the E-score was -0.0903.
With `CCGTTGCG` the E-score was 0.359.
`TACCCCAA` has an E-score of -0.205.
`AGCTCCAT` gave an E-score of -0.144.
`GCTTACCA` has an E-score of 0.0046.
The E-score of `GAGTCGGA` is reported as 0.0806.
With `CGGTGCAC` the E-score was 0.109.
For `ATGACGTG`, the E-score was -0.0765.
`CAACTCTC` gave an E-score of -0.198.
`GCTGTGCC` gave an E-score of -0.0838.
`CGGGAAGA` has an E-score of 0.322.
`GAAGTGTC` gave an E-score of -0.284.

Repeated from above (block 6):
The E-score of `TAACTCTA` is reported as -0.153.
`GCTGTGCC` gave an E-score of -0.0838.
The E-score of `CGCATTGC` is reported as 0.132.
The E-score of `GGCTGTGA` is reported as -0.0131.
The E-score of `GAGTCGGA` is reported as 0.0806.
`CGGGAAGA` has an E-score of 0.322.
With `GACTGAAC` the E-score was -0.0284.
`TACCCCAA` has an E-score of -0.205.
